Assay results pooled from the literature.
Lines come from different studies, so protocols differ. Several values in a cell are separate wells, animals, samples, runs or records. ± marks the error that the study gave.
U2AF2: U2AF2 148-342 (Homo sapiens, UniProt P26368)
UniProt P26368, sequence (whole entry, looked up): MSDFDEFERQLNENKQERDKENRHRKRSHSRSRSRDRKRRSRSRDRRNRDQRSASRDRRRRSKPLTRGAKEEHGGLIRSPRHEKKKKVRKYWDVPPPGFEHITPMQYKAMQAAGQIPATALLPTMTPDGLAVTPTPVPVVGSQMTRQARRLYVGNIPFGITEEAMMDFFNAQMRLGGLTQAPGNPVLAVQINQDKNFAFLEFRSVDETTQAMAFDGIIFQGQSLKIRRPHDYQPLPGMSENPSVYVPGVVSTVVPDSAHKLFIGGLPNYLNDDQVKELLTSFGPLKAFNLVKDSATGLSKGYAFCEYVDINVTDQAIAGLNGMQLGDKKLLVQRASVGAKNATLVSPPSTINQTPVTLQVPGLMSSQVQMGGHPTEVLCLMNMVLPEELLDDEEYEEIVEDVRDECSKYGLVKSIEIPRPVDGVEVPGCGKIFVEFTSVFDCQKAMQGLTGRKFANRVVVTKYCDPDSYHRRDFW
B1: poly(rC)-binding protein 3, human; sequence looked up; chain MGEGDAFWAPSVLPHSTLSTLSHHPQPQFGRRMESKVSEGGLNVTLTIRLLMHGKEVGSIIGKKGETVKKMREESGARINISEGNCPERIVTITGPTDAIFKAFAMIAYKFEEDIINSMSNSPATSKPPVTLRLVVPASQCGSLIGKGGSKIKEIRESTGAQVQVAGDMLPNSTERAVTISGTPDAIIQCVKQICVVMLESPPKGATIPYRPKPASTPVIFAGGQAYTIQGQYAIPHPDQLTKLHQLAMQQTPFPPLGQTNPAFPGEKLPLHSSEEAQNLMGQSSGLDASPPASTHELTIPNDLIGCIIGRQGTKINEIRQMSGAQIKIANATEGSSERQITITGTPANISLAQYLINARLTSEVTGMGTL
B2: sequence looked up; chain SGPRTLVLLDNLNVRETHSLFFRSLKDRGFELTFKTADDPSLSLIKYGEFLYDNLIIFSPSVEDFGGNINVETISAFIDGGGSVLVAASSDIGDPLRELGSECGIEFDEEKTAVIDHHNYDISDLGQHTLIVADTENLLKAPTIVGKSSLNPILFRGVGMVADPDNPLVLDILTGSSTSYSFFPDKPITQYPHAVGKNTLLIAGLQARNNARVIFSGSLDFFSDSFFNSAVQKAAPGSQRYSQTGNYELAVALSRWVFKEEGVLRVGPVSHHRVGETAPPNAYTVTDLVEYSIVIQQLSNGKWVPFDGDDIQLEFVRIDPFVRTFLKKKGGKYSVQFKLPDVYGVFQFKVDYNRLGYTHLYSSTQVSVRPLQHTQYERFIPSAYPYYASAFSMMLGLFIFSIVFLHMKEKEKSD
B3: human UPF1; sequence looked up; chain MSVEAYGPSSQTLTFLDTEEAELLGADTQGSEFEFTDFTLPSQTQTPPGGPGGPGGGGAGGPGGAGAGAAAGQLDAQVGPEGILQNGAVDDSVAKTSQLLAELNFEEDEEDTYYTKDLPIHACSYCGIHDPACVVYCNTSKKWFCNGRGNTSGSHIVNHLVRAKCKEVTLHKDGPLGETVLECYNCGCRNVFLLGFIPAKADSVVVLLCRQPCASQSSLKDINWDSSQWQPLIQDRCFLSWLVKIPSEQEQLRARQITAQQINKLEELWKENPSATLEDLEKPGVDEEPQHVLLRYEDAYQYQNIFGPLVKLEADYDKKLKESQTQDNITVRWDLGLNKKRIAYFTLPKTDSGNEDLVIIWLRDMRLMQGDEICLRYKGDLAPLWKGIGHVIKVPDNYGDEIAIELRSSVGAPVEVTHNFQVDFVWKSTSFDRMQSALKTFAVDETSVSGYIYHKLLGHEVEDVIIKCQLPKRFTAQGLPDLNHSQVYAVKTVLQRPLSLIQGPPGTGKTVTSATIVYHLARQGNGPVLVCAPSNIAVDQLTEKIHQTGLKVVRLCAKSREAIDSPVSFLALHNQIRNMDSMPELQKLQQLKDETGELSSADEKRYRALKRTAERELLMNADVICCTCVGAGDPRLAKMQFRSILIDESTQATEPECMVPVVLGAKQLILVGDHCQLGPVVMCKKAAKAGLSQSLFERLVVLGIRPIRLQVQYRMHPALSAFPSNIFYEGSLQNGVTAADRVKKGFDFQWPQPDKPMFFYVTQGQEEIASSGTSYLNRTEAANVEKITTKLLKAGAKPDQIGIITPYEGQRSYLVQYMQFSGSLHTKLYQEVEIASVDAFQGREKDFIILSCVRANEHQGIGFLNDPRRLNVALTRARYGVIIVGNPKALSKQPLWNHLLNYYKEQKVLVEGPLNNLRESLMQFSKPRKLVNTINPGARFMTTAMYDAREAIIPGSVYDRSSQGRPSSMYFQTHDQIGMISAGPSHVAAMNIPIPFNLVMPPMPPPGYFGQANGPAAGRGTPKGKTGRGGRQKNRFGLPGPSQTNLPNSQASQDVASQPFSQGALTQGYISMSQPSQMSQPGLSQPELSQDSYLGDEFKSQIDVALSQDSTYQGERAYQHGGVTGLSQY
B4: human RECQ1; sequence looked up; chain MASVSALTEELDSITSELHAVEIQIQELTERQQELIQKKKVLTKKIKQCLEDSDAGASNEYDSSPAAWNKEDFPWSGKVKDILQNVFKLEKFRPLQLETINVTMAGKEVFLVMPTGGGKSLCYQLPALCSDGFTLVICPLISLMEDQLMVLKQLGISATMLNASSSKEHVKWVHAEMVNKNSELKLIYVTPEKIAKSKMFMSRLEKAYEARRFTRIAVDEVHCCSQWGHDFRPDYKALGILKRQFPNASLIGLTATATNHVLTDAQKILCIEKCFTFTASFNRPNLYYEVRQKPSNTEDFIEDIVKLINGRYKGQSGIIYCFSQKDSEQVTVSLQNLGIHAGAYHANLEPEDKTTVHRKWSANEIQVVVATVAFGMGIDKPDVRFVIHHSMSKSMENYYQESGRAGRDDMKADCILYYGFGDIFRISSMVVMENVGQQKLYEMVSYCQNISKCRRVLMAQHFDEVWNSEACNKMCDNCCKDSAFERKNITEYCRDLIKILKQAEELNEKLTPLKLIDSWMGKGAAKLRVAGVVAPTLPREDLEKIIAHFLIQQYLKEDYSFTAYATISYLKIGPKANLLNNEAHAITMQVTKSTQNSFRAESSQTCHSEQGDKKMEEKNSGNFQKKAANMLQQSGSKNTGAKKRKIDDA
UniProt P13393, sequence (whole entry, looked up): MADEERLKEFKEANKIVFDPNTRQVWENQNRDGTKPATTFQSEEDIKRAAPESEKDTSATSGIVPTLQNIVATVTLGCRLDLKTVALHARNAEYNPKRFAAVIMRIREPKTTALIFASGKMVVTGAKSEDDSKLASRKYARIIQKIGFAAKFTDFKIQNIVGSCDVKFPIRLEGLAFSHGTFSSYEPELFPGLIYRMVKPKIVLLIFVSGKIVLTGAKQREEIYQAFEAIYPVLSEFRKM

`Phosphate` has a Km of > 20 mM (human neutrophils; sulfate/chloride exchange, substrate, sulfate influx; external binding site).
`ELDPIGLEY` gave a GFP-positive cells of 6.77% (Jurkat expressing engineered TCR; NFAT-eGFP reporter, fluorescence microscopy; peptide; concentration not given, HLA-A*01:01 on EL4 cells).
`GCUUAUCUU (ssRNA)` has a Kd of 2100 nM (U2AF2; sequencing of bound RNA; RNA; motif only).
`B1`: “log2 fold change” 0.79 (CYB5R4 knockout human cells; PP4 interaction, 3xFLAG-PP4C IP-MS; concentration not given; relative to: CYB5R4 KO over parental).
With `GTATAAAAGTTCCTGAAGGGGGGGCGGGGTGGGGGTCAAGTCAATCGGTCC (dsDNA; 5'-amino-C6 primer)` the Kd was 1.23 ± 0.05 nM (SPT15 full length assumed (Saccharomyces cerevisiae, UniProt P13393); array; double-stranded DNA, one strand shown; TBP alone).
`B2` — result for “log2 fold change”: -0.79 (CYB5R4 knockout human cells; PP4 interaction, 3xFLAG-PP4C IP-MS; concentration not given; relative to: CYB5R4 KO over parental).
`EPDPIGYEF` gave a GFP-positive cells of 0.467% (Jurkat expressing engineered TCR; NFAT-eGFP reporter, fluorescence microscopy; peptide; concentration not given, HLA-A*01:01 on EL4 cells).
For `GRKKRRQRRRPQ`, “lowest effective concentration” read ≥ 1 µM (HEK expressing SEP-GluA1; SEP-GluA1 internalization, flow cytometry; peptide; relative to: untreated).
With `MTVCNASQRQAHAQATAVSL` the selectivity ratio was 0.74 ± 0.33 (H2073 lung adenocarcinoma; phage binding output/input; peptide; relative to: control phage).
Under “log2 fold change”, `human CDK9` is recorded as -0.81 (CYB5R4 knockout human cells; PP4 interaction, 3xFLAG-PP4C IP-MS; concentration not given; relative to: CYB5R4 KO over parental).
For `YEQDPWGVKWWY`, mRNA level read “decreased” (mouse bone marrow-derived macrophages; qPCR, item: Arg-1; peptide; concentration not given, added: IL-4).
Under “log2 fold change”, `human EPHA2` is recorded as -1.92 (CYB5R4 knockout human cells; PP4 interaction, 3xFLAG-PP4C IP-MS; concentration not given; relative to: CYB5R4 KO over parental).
`human ME2 K81R` has an activation fold of 1.1 (enzyme activity, activator, NADH absorbance; recombinant enzyme; range over 0 to 5 mM, pH 7.4; relative to: wild type).
With `LIDPIGMIF` the GFP-positive cells was 0.438% (Jurkat expressing engineered TCR; NFAT-eGFP reporter, fluorescence microscopy; peptide; concentration not given, HLA-A*01:01 on EL4 cells).
`GUUCUUUAA (ssRNA)` gave a Kd of 3910 nM (U2AF2; sequencing of bound RNA; RNA; motif only).
The protein level of `Pam2CSK4` is reported as 1.23 and 1.2 and 1.19 (BV-2; Western blot, item: MSR1; concentration not given, unit not given; relative to: control).
`B3 (human UPF1)`: “log2 fold change” -1.45 (CYB5R4 knockout human cells; PP4 interaction, 3xFLAG-PP4C IP-MS; concentration not given; relative to: CYB5R4 KO over parental).
`YLDPIPLGY` has a GFP-positive cells of 0.539% (Jurkat NFAT-eGFP expressing engineered TCR; NFAT reporter gene; peptide; concentration not given, HLA-A*01:01 presentation).
`B4 (human RECQ1)` — result for “log2 fold change”: -2.22 (CYB5R4 knockout human cells; PP4 interaction, 3xFLAG-PP4C IP-MS; concentration not given; relative to: CYB5R4 KO over parental).
For `ELDILNPSY`, the GFP-positive cells was 0.641% (Jurkat expressing engineered TCR; NFAT-eGFP reporter, fluorescence microscopy; peptide; concentration not given, HLA-A*01:01 on EL4 cells).
With `Peginesatide` the phosphorylation level was 6.5 fold (UT7/EPO; tyrosine phosphorylation, LC-MS/MS phosphoproteomics, GluC, item: GAB1 tyrosine 285; 10 nM, 15 min, added: 10 U/mL EPO; relative to: vehicle).
The GFP-positive cells of `ELEPIPLGF` is reported as 0.499% (Jurkat expressing engineered TCR; NFAT-eGFP reporter, fluorescence microscopy; peptide; concentration not given, HLA-A*01:01 on EL4 cells).
With `epoetin alfa` the mRNA level was 4.6 fold (UT7/EPO; microarray, item: FOS (probe 209189_at); 5 U/mL, 90 min, added: SCF 10 nM; relative to: vehicle).

Excerpt of the above:
`B4 (human RECQ1)` — result for “log2 fold change”: -2.22 (CYB5R4 knockout human cells; PP4 interaction, 3xFLAG-PP4C IP-MS; concentration not given; relative to: CYB5R4 KO over parental).
`human ME2 K81R` has an activation fold of 1.1 (enzyme activity, activator, NADH absorbance; recombinant enzyme; range over 0 to 5 mM, pH 7.4; relative to: wild type).
